Measurements of several laboratories.
Each line is one published result; not all experiments were run side by side. Numbers after ± are the reported error.

Compound	assay	system	setting	how to read	measurement	result
N=C(N)NCCC[C@@H]1NC(=O)[C@H](CCCNC(=N)N)NC(=O)[C@H](CCCNC(=N)N)NC(=O)[C@H](CCCNC(=N)N)NC(=O)[C@H](Cc2c[nH]c3ccccc23)NC(=O)[C@H](CCCNC(=N)N)NC(=O)[C@H](CCCNC(=N)N)NC(=O)[C@@H](N)CSSC[C@@H](C(N)=O)NC1=O		zebrafish embryos	50 µg/mL, 48 h		hatching rate	~75%
CSCC[C@@H]1NC(=O)[C@@H]2CSSC[C@H](NC(=O)[C@H](CO)NC(=O)[C@H](C)N)C(=O)N[C@@H](CCCNC(=N)N)C(=O)N[C@@H]([C@@H](C)O)C(=O)N3CCC[C@H]3C(=O)N[C@@H](CCCCN)C(=O)N[C@@H](CC(=O)O)C(=O)N[C@H]3CSSC[C@H](NC(=O)[C@H](CCCCN)NC(=O)[C@H](CCCNC(=N)N)NC(=O)[C@H](CC(N)=O)NC1=O)C(=O)N[C@@H](CCCCN)C(=O)N[C@H]1CSSC[C@H](NC(=O)[C@@H]4CCCN4C(=O)[C@H](CC(=O)O)NC(=O)[C@H](C)NC3=O)C(=O)N[C@@H](C)C(=O)N[C@@H](CCCCN)C(=O)N[C@@H](CCC(=O)O)C(=O)N[C@@H]([C@@H](C)O)C(=O)NCC(=O)N[C@@H](CSSC[C@@H](C(N)=O)NC(=O)[C@H](CCCNC(=N)N)NC(=O)[C@H](CC(N)=O)NC1=O)C(=O)N1CCC[C@H]1C(=O)N[C@@H](Cc1ccc(O)cc1)C(=O)NCC(=O)N[C@@H](CCCCN)C(=O)N2		DA rat, pristane-induced arthritis, serum	subcutaneous, 0.1 mg/kg once weekly, end of 21-day trial		ALT	59.6 U/L
COc1ccc(NC(=O)Cn2c(=O)c3ccccc3n(CC(=O)Nc3cc([125I])c(OC)cc3OC)c2=O)cc1		rat, kidney	intravenous, 30 min		tracer uptake	0.15 %ID/g
CC(C)C[C@@H](N)C(=O)NCC(=O)N[C@H](C)C(=O)N[C@H](CO)C(=O)N[C@H](Cc1c[nH]c2ccccc12)C(=O)N[C@H](Cc1c[nH]cn1)C(=O)N[C@H](CCCNC(=N)N)C(=O)N1CCC[C@@H]1C(=O)N[C@H](CC(=O)O)C(=O)N[C@H](CCCCN)C(=O)N[C@H](CS)C(=O)N[C@H](CS)C(=O)N[C@H](CC(C)C)C(=O)NCC(=O)N[C@H](Cc1ccc(O)cc1)C(=O)N[C@H](CCC(N)=O)C(=O)N[C@H](CCCCN)C(=O)N[C@H](CCCNC(=N)N)C(=O)N1CCC[C@@H]1C(=O)N[C@H](CC(C)C)C(=O)N1CCC[C@@H]1C(N)=O	LC-MS/MS	processed rat plasma	25 ng/mL, 4 h, 8 °C, autosampler storage	reference: nominal	accuracy	86.9%
CCCC[C@H]1C(=O)N(C)[C@@H](CCCC)C(=O)N[C@@H](CCCNC(=O)CN2CCN(CC(=O)O)CCN(CC(=O)O)CCN(CC(=O)O)CC2)C(=O)N[C@H](C(=O)NCC(N)=O)CSCC(=O)N[C@@H](Cc2ccc(O)cc2)C(=O)N(C)[C@@H](C)C(=O)N[C@@H](CC(N)=O)C(=O)N2CCC[C@H]2C(=O)N[C@@H](Cc2c[nH]cn2)C(=O)N[C@@H](CC(C)C)C(=O)N(C)CC(=O)N[C@@H](Cc2c[nH]c3ccccc23)C(=O)N[C@@H](CO)C(=O)N[C@@H](Cc2c[nH]c3ccccc23)C(=O)N1C [gallium-68 labelled]	static PET	NOD/SCID mice, CHO-hPD-L1 xenograft, CHO-hPD-L1 tumour	intravenous, 1 h post injection		tumour uptake	5.93 ± 0.45 %ID/g
CCc1cc2c(cc1N1CCC(N3CCOCC3)CC1)C(C)(C)c1c(c3ccc(C#N)cc3n1CC[18F])C2=O	PET	nude mouse, brain	5 min	reference: observed over vascular	brain uptake ratio	40 fold
COC1CC(OC2CCC3(C)C4CCC5(C)C(C6=CC(=O)OC6)CCC5(O)C4CCC3(O)C2)OC(C)C1OC1OC(CO)C(O)C(O)C1O (centres unmarked)		rat liver S9	1 and 3 µg/mL, 120 min		metabolic stability	stable
CC1=CC=c2ccc3c4c2[N]1[Re](=[C]=O)(=[C]=O)(=[C]=O)([C]#[N+]c1c(C)cccc1C)[N]4C(C)=CC=3.O=S(=O)([O-])C(F)(F)F		PBS, up to 1% DMSO	pH 7.4, air-equilibrated		emission maximum	503 nm
CC[C@H](C)C(=O)N1CCC(NC(=O)Nc2ccc(OC(F)(F)F)c(F)c2)CC1		healthy volunteers, both sexes	oral, 8 mg, fasted state		subjects with treatment-emergent headache	0%
CCCCCCCCCCCCCCCC(=O)N[C@@H](CCCCNC(=O)[C@H](CCCCNC(=O)CCC(=O)NCCN(C)CCNc1ccnc2cc(C(F)(F)F)ccc12)NC(=O)CCC(=O)NCCN(C)CCNc1ccnc2cc(C(F)(F)F)ccc12)C(=O)N[C@@H](CS)C(=O)NCC(=O)NCC(=O)NCC(=O)N[C@@H](C)C(=O)N[C@@H](CCCNC(=N)N)C(=O)N[C@@H](CCCCN)C(=O)N[C@@H](CCCCN)C(=O)N[C@@H](C)C(=O)N[C@@H](C)C(=O)N[C@@H](CCCCN)C(=O)N[C@@H](C)C(=O)N[C@@H](C)C(=O)N[C@@H](CCCNC(=N)N)C(=O)N[C@@H](CCCCN)C(=O)N[C@@H](CCCCN)C(=O)N[C@@H](C)C(=O)N[C@@H](C)C(=O)N[C@@H](CCCCN)C(=O)N[C@@H](C)C(=O)N[C@@H](C)C(=O)N[C@@H](CCCNC(=N)N)C(=O)N[C@@H](CCCCN)C(=O)N[C@@H](CCCCN)C(=O)N[C@@H](C)C(=O)N[C@@H](C)C(=O)N[C@@H](CCCCN)C(=O)N[C@@H](C)C(=O)N[C@@H](C)C(=O)N[C@@H](CCCNC(=N)N)C(=O)N[C@@H](CCCCN)C(=O)N[C@@H](CCCCN)C(=O)N[C@@H](C)C(=O)N[C@@H](C)C(=O)N[C@@H](CCCCN)C(=O)N[C@@H](C)C(N)=O		C57BL/6 mice, cornea	topical, 700 µM, 140:1 ratio, together with: 5 µM siGLO siRNA		fluorescence persistence	≤ 24 h
C[C@H]1N=C(c2ccccc2F)c2cc(Br)ccc2-n2cnc(C(=O)OC3O[C@H](C(=O)O)[C@@H](O)[C@H](O)[C@H]3O)c21 (some centres unmarked)		Swiss Webster mouse	intraperitoneal, 750 µg of parent drug, 0 to 48 h	reference: dose	excretion in urine and feces	3.1 ± 1.4%
CN[C@](C)(C[18F])C(=O)O		SCID mouse U87 xenograft, spleen	30 min, post injection		tissue uptake	12 ± 3.8 %ID/g
C[C@@](O)(C(F)F)[C@H](NC(=O)c1ccc(C#CC#CC2CC2)cc1)C(=O)NO		CD-1 mouse	oral, 40 mg/kg, not fasted		Cmax	3000 ± 2000 ng/mL
CC(C)[C@H](NC(=O)CNC(=O)[C@H](CCC(N)=O)NC(=O)[C@H](C)N)C(=O)O		human	continuous infusion, dose not given		subjects with adverse events	44%
COc1cc(NC(=O)C(=O)c2c(C)n(Cc3ccc(Cl)cc3)c3ccc(C)cc23)ccn1		male cynomolgus monkey hepatocytes	10 µM, 90 min		number of metabolites	13
O=c1cc(-c2ccccc2)oc2c(Br)c(O)c(O)c(O)c12		C57BL/6 mouse, plasma	po, 250 mg/kg		CL	99.8 ± 52.4 mL/h
CN(C)C(CNC(=O)Nc1cc(C(F)(F)F)ccc1N1CCOCC1)c1ccncc1 (centres unmarked)		mouse, serum	intraperitoneal, 120 mg/kg single dose		serum calcium	8.6 mg/dL
O=C(CN1CCN(c2cc3c(cc2F)c(=O)c(C(=O)O)cn3C2CC2)CC1)Nc1ccc(Cl)cc1		BALB/c mice female	intravenous, 1.25 mg/kg		Vss	2.2 mL
[2H]C([2H])([2H])C([2H])([2H])C([2H])([2H])OC(C(=O)OC1CCNCC1)(c1ccccc1)c1ccccc1	refers to: acne	healthy Japanese male	oral, 12 mg, 16 days, multiple ascending dose		adverse events	14.3%
COC(=O)C[C@](O)(CCCC(C)(C)OC(C)=O)C(=O)O[C@@H]1C(OC)=C[C@]23CCCN2CCc2cc4c(cc2[C@H]13)OCO4		CD1 mouse, brain	oral, 1 mg/kg, 0.5 h, below quantification limit 1.00 ng/mL		tissue concentration	not detected
O=C(O)CCC(NP(=O)(O)OCCC[C@@H](NC(=O)CCC(NC(=O)c1ccc([18F])cc1)C(=O)O)C(=O)O)C(=O)O (some centres unmarked)	radioactivity biodistribution	mouse, PC-3 xenograft, tumour, blood	2 h		tumour/blood ratio	5.42 ± 1.43
Cc1ccccc1CN1CCC(O)(c2ccc(Cl)c(C(F)(F)F)c2)CC1		BALB/c mouse	intraperitoneal, 100 mg/kg, 96 h		survival	67%
CC(C)[C@@H]1NC(=O)[C@H](Cc2ccccc2)NC(=O)[C@H](Cc2ccc(O)cc2)NC(=O)CCSSC[C@@H](C(=O)N2CCC[C@H]2C(=O)N[C@H](CCCNC(=N)N)C(=O)NCC(N)=O)NC(=O)[C@H](CCC(N)=O)NC1=O		Wistar rat, blood	intravenous, 100 µg/kg single dose, 72 h		haematocrit	41.2 ± 1.7%
O=c1oc2c(O)c(O)ccc2c2cc(O)c(O)cc12	potentiometric titration	water, extrapolated from methanol/water	25 °C		pKa2	8.43
CCCCCCCCCCCCC(=O)O.O=C1CCCC2C3CCCN4CCCC(CN12)C34 (centres unmarked)		water	concentration not given, 303.15 K		critical aggregation concentration	0.00097 mol/kg
CC(C)C[C@H](NC(=O)[C@H](Cc1ccc(O)cc1)NC(=O)[C@H](Cc1c[nH]cn1)NC(=O)[C@H](CC(N)=O)NC(=O)[C@H](CC(C)C)NC(=O)[C@H](C)NC(=O)[C@H](CC(C)C)NC(=O)CNC(=O)CNC(=O)[C@@H](NC(=O)[C@@H](NC(=O)[C@H](CCCCN)NC(=O)CNC(=O)[C@@H](NC(=O)[C@H](CCCCN)NC(=O)[C@H](CCCCN)NC(=O)[C@H](C)NC(=O)[C@H](CCCCN)NC(=O)[C@H](CCCNC(=N)N)NC(=O)[C@H](Cc1ccccc1)NC(=O)[C@H](Cc1c[nH]c2ccccc12)NC(=O)[C@H](CC(=O)O)NC(=O)[C@H](CCCCN)NC(=O)[C@H](Cc1c[nH]c2ccccc12)NC(=O)CN)C(C)C)[C@@H](C)O)C(C)C)C(N)=O		zebrafish embryos	1 h, 4, 28, 52 hpf		acute toxic concentration	5 µg/mL
CC(C)C[C@@H](NC(=O)[C@@H](CCCCN)NC(=O)CNC(=O)CNC(=O)[C@@H]1CSSC[C@H](N)C(=O)NCC(=O)N[C@@H](CCCNC(=N)N)C(=O)N[C@@H](CCCNC(=N)N)C(=O)N[C@@H](C)C(=O)NCC(=O)NCC(=O)N[C@@H](CO)C(=O)N1)C(=O)N[C@H](C)C(=O)N[C@H](CCCCN)C(=O)N[C@H](CC(C)C)C(=O)N[C@H](C)C(=O)N[C@H](CCCCN)C(=O)N[C@H](CCCCN)C(=O)N[C@H](CC(C)C)C(=O)N[C@H](C)C(=O)N[C@H](CCCCN)C(=O)N[C@H](CC(C)C)C(=O)N[C@H](C)C(=O)N[C@H](CCCCN)C(=O)O		cynomolgus monkey, plasma	intravenous, 3 mg/kg, infusion		AUC	8880 ng·h/mL
CCN(Cc1ccccc1)C(=O)CCc1nc(CN2CCN(C(=O)Cc3ccc(OC)c(OC)c3)CC2)no1		rat, brain	intravenous, 1 mg/kg, 30 min		concentration	3.4 ng/g
CC(C)[C@H](NC(=O)CNC(=O)[C@H](CCC(N)=O)NC(=O)[C@H](C)N)C(=O)O		healthy male volunteers	intravenous infusion, dose not given, experimental endotoxaemia, all doses		tolerability	not toxic

A few entries again:
Compound	assay	system	setting	how to read	measurement	result
C[C@@](O)(C(F)F)[C@H](NC(=O)c1ccc(C#CC#CC2CC2)cc1)C(=O)NO		CD-1 mouse	oral, 40 mg/kg, not fasted		Cmax	3000 ± 2000 ng/mL
CC(C)[C@H](NC(=O)CNC(=O)[C@H](CCC(N)=O)NC(=O)[C@H](C)N)C(=O)O		human	continuous infusion, dose not given		subjects with adverse events	44%
COc1cc(NC(=O)C(=O)c2c(C)n(Cc3ccc(Cl)cc3)c3ccc(C)cc23)ccn1		male cynomolgus monkey hepatocytes	10 µM, 90 min		number of metabolites	13
